# Experimental data pooled from the literature.
# Parts stem from different laboratories: compare values within a part only.
# UniProt P50406, sequence (whole entry, looked up): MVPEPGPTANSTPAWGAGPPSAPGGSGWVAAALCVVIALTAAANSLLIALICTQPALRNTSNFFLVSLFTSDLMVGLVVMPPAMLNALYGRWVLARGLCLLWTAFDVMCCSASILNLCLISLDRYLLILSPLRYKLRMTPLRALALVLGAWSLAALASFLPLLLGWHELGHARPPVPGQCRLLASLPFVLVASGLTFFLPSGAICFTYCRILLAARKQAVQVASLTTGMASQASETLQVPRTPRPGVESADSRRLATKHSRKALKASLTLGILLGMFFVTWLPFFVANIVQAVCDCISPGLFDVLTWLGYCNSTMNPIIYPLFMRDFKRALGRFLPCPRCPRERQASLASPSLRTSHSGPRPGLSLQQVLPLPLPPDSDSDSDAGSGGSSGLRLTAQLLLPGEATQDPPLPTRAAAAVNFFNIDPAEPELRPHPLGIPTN
# UniProt P34969, sequence (whole entry, looked up): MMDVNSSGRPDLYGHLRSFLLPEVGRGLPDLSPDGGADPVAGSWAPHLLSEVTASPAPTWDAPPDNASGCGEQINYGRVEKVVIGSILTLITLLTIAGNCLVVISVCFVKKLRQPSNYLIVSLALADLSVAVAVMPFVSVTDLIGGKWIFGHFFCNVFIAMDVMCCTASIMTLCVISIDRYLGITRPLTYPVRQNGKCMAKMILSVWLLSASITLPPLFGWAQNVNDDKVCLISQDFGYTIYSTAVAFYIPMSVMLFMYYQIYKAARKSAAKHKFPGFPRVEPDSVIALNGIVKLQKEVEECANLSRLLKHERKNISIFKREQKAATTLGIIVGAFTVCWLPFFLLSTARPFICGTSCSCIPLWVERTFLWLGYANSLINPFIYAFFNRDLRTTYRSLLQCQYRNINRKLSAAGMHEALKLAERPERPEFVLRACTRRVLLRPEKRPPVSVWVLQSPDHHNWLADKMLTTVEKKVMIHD

# Sample 1 — method: protein-binding microarray; molecule type: double-stranded DNA, one strand shown; sample: in vitro; tested at: 0.8 µM; notes: whole 60-bp probe, no competitor; reading: higher = stronger binding; constant ends, left off below: … GTCTTGATTCGCTTGACGCTGCTG
# Target: Centromere-binding protein 1, full length, N-terminal tag (CBF1, Saccharomyces cerevisiae, UniProt P17106, residues 1-351)
# UniProt P17106, sequence (whole entry, looked up): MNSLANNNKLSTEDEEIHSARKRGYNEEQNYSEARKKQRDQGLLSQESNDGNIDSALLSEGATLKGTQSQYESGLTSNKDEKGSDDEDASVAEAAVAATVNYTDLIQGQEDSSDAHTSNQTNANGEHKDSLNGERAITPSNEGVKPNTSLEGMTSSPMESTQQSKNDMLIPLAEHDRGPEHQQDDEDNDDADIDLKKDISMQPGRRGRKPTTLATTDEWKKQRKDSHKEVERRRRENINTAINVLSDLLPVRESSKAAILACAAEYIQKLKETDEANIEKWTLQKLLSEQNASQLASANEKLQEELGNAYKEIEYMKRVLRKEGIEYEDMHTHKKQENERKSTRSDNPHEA
Oligonucleotide,fluorescence intensity
GAAAGATAAAAGCACCACCTTCTACCGGACCGTTAG,503 a.u.
GAAAGAAATAAACATCACGTGATATGTAATACCTAG,37000 a.u.
CTAAAATGATATGATCAGTTGAGAAAAAGCTGGTTC,572 a.u.
GAAACGCGCAACCATCATCAGAAATAAAATAAATAG,578 a.u.
GAATTCTTAGTATTCCATGTGTCTCGTGATACCTAG,3760 a.u.
GAACCCGGGACGCGTCATGCGCGTTCCAGAAAGTAG,539 a.u.
CTAACGATCACAGTTCACGACACATCACGTGTGTTC,9710 a.u.
GAACTTAATAAAACTCATGTGAACCGTATGAAATAG,680 a.u.

# Sample 2 — effect on: cell-free assay; tested at: 10 µM
# Structure (SMILES): O=C(NNS(=O)(=O)c1ccccc1)c1cc(-c2ccnnc2)ccc1F
target,inhibition [%]
"Sigma non-opioid intracellular receptor 1 (SIGMAR1, Homo sapiens, UniProt Q99720)",19.1
"5-hydroxytryptamine receptor 6 (HTR6, Homo sapiens, UniProt P50406)",2.65
"5-hydroxytryptamine receptor 7 (HTR7, Homo sapiens, UniProt P34969)",-1.87

# Sample 3 — mode: antagonist
# Target: Beta-1 adrenergic receptor (ADRB1, Homo sapiens, UniProt P08588)
# UniProt P08588, sequence (whole entry, looked up): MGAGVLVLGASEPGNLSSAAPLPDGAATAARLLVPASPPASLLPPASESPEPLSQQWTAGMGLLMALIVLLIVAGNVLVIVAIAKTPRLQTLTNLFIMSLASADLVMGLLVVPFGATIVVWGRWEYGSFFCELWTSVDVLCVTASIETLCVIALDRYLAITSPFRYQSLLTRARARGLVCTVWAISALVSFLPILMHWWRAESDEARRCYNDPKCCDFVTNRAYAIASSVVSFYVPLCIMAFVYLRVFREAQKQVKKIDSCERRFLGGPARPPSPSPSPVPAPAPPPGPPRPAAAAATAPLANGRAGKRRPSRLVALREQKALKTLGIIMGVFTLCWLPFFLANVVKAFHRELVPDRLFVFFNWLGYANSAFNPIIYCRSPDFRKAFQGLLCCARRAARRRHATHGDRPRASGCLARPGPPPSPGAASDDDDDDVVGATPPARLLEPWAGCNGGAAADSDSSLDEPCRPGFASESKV
Structure (SMILES),IC50 [µM]
CC(=O)Oc1c(C)cc(OCC(O)CNC(C)C)c(C)c1C (stereo not drawn),≥ 100
Cc1cc(C)n(-c2ccc(=O)n(C3CCN(c4nc5ccccc5cc4C#N)CC3)n2)n1,≥ 100
O=C(Nc1ccc(Oc2ccnc3[nH]ccc23)c(F)c1)c1cccn(-c2ccc(F)cc2)c1=O,≥ 100

# Single results of other studies — method: cross-linking MS
Molecule,partner,sample,notes,together with,measurement,result
"HNRNPK (Homo sapiens, UniProt P61978)","HNRNPD (Homo sapiens, UniProt Q14103)",,hits only,,interaction screen,cross-linked
"PGRMC1 (Homo sapiens, UniProt O00264)","RPN1 (Homo sapiens, UniProt P04843)",cell fractions,,DSSO,cross-linked residues,K102 to K564
"FAM98B (Homo sapiens, UniProt Q52LJ0)","RTRAF (Homo sapiens, UniProt Q9Y224)",cell fractions,,DMTMM,cross-linked residues,E145 to K154
"P4HB (Homo sapiens, UniProt P07237)","P4HA1 (Homo sapiens, UniProt P13674)",cell fractions,,DSSO,cross-linked residues,K409 to K299
